Assay results of several laboratories.
Every numbered part comes from another study and shows a few of its results, in no order.

Sample 1 — method: universal PBM; molecule type: double-stranded DNA, one strand shown; sample: in vitro; tested at: 600 nM; direction: higher = stronger binding; endpoint: E-score
Target: Sal-like protein 4, full length isoform A (SALL4, Homo sapiens, UniProt Q9UJQ4, residues 1-1053)
Chain of UniProt Q9UJQ4 (whole entry, looked up): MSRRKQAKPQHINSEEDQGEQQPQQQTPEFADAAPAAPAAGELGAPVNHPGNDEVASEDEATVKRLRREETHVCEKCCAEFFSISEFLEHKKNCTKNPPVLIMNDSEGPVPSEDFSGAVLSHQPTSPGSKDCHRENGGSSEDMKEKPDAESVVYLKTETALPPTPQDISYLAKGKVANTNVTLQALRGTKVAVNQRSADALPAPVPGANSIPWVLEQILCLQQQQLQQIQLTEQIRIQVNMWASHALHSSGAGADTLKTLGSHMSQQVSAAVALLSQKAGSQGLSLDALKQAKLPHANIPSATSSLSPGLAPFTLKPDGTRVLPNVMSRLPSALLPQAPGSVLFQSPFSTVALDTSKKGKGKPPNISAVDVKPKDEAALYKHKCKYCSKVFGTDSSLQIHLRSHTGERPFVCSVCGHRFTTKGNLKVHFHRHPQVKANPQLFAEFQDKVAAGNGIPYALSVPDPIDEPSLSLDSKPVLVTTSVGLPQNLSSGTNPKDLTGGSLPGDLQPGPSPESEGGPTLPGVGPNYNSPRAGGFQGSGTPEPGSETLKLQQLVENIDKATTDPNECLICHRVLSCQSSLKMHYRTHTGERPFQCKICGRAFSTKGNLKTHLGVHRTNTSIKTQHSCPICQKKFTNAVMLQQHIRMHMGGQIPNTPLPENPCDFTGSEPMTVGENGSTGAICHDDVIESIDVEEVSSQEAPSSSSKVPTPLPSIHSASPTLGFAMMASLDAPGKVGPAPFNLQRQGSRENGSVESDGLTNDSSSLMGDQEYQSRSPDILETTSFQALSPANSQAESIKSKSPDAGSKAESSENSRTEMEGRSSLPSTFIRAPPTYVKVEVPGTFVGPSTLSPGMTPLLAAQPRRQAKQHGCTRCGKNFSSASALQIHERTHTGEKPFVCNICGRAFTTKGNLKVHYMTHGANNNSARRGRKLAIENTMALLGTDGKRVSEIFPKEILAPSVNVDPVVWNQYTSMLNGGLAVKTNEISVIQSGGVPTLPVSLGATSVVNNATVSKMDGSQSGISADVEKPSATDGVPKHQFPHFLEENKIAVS
Notes: 8-mer, flanks averaged, mean of replicates
CCAGCTTC: -0.201
AGCTCACG: -0.189
AATAATCG: 0.332
ATTTCCGA: 0.227
GCAGTCTA: 0.0165
ACGAAGCG: -0.215
ATCGGGGC: -0.27
CTAAGGCC: -0.274
TCTTATAA: 0.287
AGGACGAT: 0.0614
AGACCCCC: -0.315
GCATCGTA: -0.0424
GGCACCCC: -0.275
GACGATTA: 0.185
AATATCCT: 0.185
ACCAGACT: -0.134

Sample 2 — method: RNA Bind-n-Seq; molecule type: RNA; sample: in vitro; tested at: 200 nM; notes: whole 134-nt RNA, ends assumed; added: 150 mM KCl; reference: input library; direction: higher = stronger binding; endpoint: log2 enrichment
Target: Fragile X messenger ribonucleoprotein 1, C-terminal low-complexity region (Fmr1, Mus musculus, UniProt P35922)
All sequences stand within: GGGAGUUCUACAGUCCGACGAUC … UGGAAUUCUCGGGUGUCAAGG
CAAGUCCUGUGCUACACAUCGUAUGUACCGAAUCGGCCCGGGGCCCGGGGCCCGGGAAAGUAUUAUGUUACGCCGUUCGGAUCUGCACUU: -0.463
CACAGACAACACGCACCCACACAGACACAGAGGGAAGGGGUUGGGAUAAAGACAGGGUGCACAGCAGGGCGGGGUAGGACCCCAGCCCCU: 0.432
UGGCCCGCCGUCCUGAGGAAGCUGAGGUUCACUGCGGUGCCCAAGAACCACCAGGCGGUCCGGAACCCGUGAGCGGCUGCCAGGGGCUCU: 0.205
ACCAUGCAGGUGGGCAUCUUUGGGAAGUGGGGCAAGGGGGGGAUAGGGAGGCGGGUAACACUUUGGGAACAGGUGGUCCCAGGUCGUUUC: 0.736
GUCCUGUGCUACACAUCGUAUGUACCGAAUCGGGAAAGGGUUUUUGGGUUUUUUUGGGAAAGUAUUAUGUUACGCCGUUCGGAUCUGCAC: -0.0366
UCCUGUGCUACACAUCGUAUGUACCGAAUCGGGGAAAAAGGGAAAAAGGGGAAAAAGGGGAAAGUAUUAUGUUACGCCGUUCGGAUCUGC: 0.189
AGUCCUGUGCUACACAUCGUAUGUACCGAAUCGGGGUGGGGAAAGGGGAAAAAGGGGAAAGUAUUAUGUUACGCCGUUCGGAUCUGCACU: 0.539
GUCCUGUGCUACACAUCGUAUGUACCGAAUCGGGGCCCCCGGGCCCCCGGGGCCCCCGGAAAGUAUUAUGUUACGCCGUUCGGAUCUGCA: -0.893
CCUCAAGUCCUGUGCUACACAUCGUAUGUACCGAAUCGGAGGGGAGGAGGGGAAAGUAUUAUGUUACGCCGUUCGGAUCUGCACUUCCAG: 0.448
CACAGACAACACGCACCCACACAGACACAGAGGGAAGGGGUUGGGAUGGGGACAGGGUGCACAGCAAAACGGGGUAGGACCCCAGCCCCU: 1.29
CCUGUGCUACACAUCGUAUGUACCGAAUCGGGGAAAAAGGGGAAAAAAAGGGGUUUGGGGAAAGUAUUAUGUUACGCCGUUCGGAUCUGC: 0.238
CAAGUCCUGUGCUACACAUCGUAUGUACCGAAUCGGGUUUUGGGUUUUGGUUUUGGAAAGUAUUAUGUUACGCCGUUCGGAUCUGCACUU: -0.686
GGUGUUGCUGGAAGAAGCCAAGGAUUUGCUCUCUGACUGGCUGGAUUCUACACUUGGCUGUGAUGUCACUGACAAUUCCAUCUUCUCCAA: 0.493
UCCUGUGCUACACAUCGUAUGUACCGAAUCGGCCCCCCGGGGCCCCCCGGGGCCCCCCGGAAAGUAUUAUGUUACGCCGUUCGGAUCUGC: -0.498

Sample 3 — method: RNA Bind-n-Seq; molecule type: RNA; sample: in vitro; tested at: not given; reference: input RNA pool; direction: higher = stronger binding; endpoint: bound/input enrichment
Target: RING finger protein unkempt homolog, zinc fingers 1-6, GST-SBP tag (UNK, Homo sapiens, UniProt Q9C0B0, residues 30-357)
Notes: RNA with constant flanks, human and mouse sites, ends assumed
All sequences stand within: GGGAGUUCUACAGUCCGACGAUC … CAACAGAGGAUUGAGCAUCA
Residues (chain): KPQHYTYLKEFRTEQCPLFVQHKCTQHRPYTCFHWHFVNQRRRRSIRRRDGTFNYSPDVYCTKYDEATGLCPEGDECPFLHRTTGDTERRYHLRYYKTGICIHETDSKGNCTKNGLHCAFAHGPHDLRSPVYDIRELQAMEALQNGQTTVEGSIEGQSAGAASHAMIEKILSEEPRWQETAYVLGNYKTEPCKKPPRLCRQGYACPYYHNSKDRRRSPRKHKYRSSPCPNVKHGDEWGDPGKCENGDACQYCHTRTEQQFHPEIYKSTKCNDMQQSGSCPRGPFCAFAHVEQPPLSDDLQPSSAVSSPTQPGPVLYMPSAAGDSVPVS
AAACAGCCUGAGAAAGUGGCAGCUACCAGGCAGGAGAUCUUCCAGGAGCAGUUGGCAGCAGUGCCAGAGUUCCGCGGUCUUGGGCCCCUCUUCAAGUCCUCGCCUGAGCCCGUGGCCCUC: 0.116 ratio
CCUCCAUCUCGGAGCUGUGGCUGCUGUGGCUGGCUCUGGCCUGCCAGUGCGUUAUAGCCCUUAGGCCUAUUGAACUUACUCUCUAAGAGAGGAUAGGACACCAGGAGAGGCUGCAGCCCU: 0.213 ratio
UCUACUUCCUCCUCCUCCUCUGAAGACGACUGUUUUGAGAGGAGAACAAAAAGGAACCGAAAUAGAGCUAUUAACAGGUGCCUCCCACUAAAUUUUCGGAAAGAUGAAAUAAGAGGGAUU: 0.19 ratio
UUCGUACCAGUUAUUAAACUCUGUUUUGAUGGGAUAGAGAUUGAUAUUUUGUUUGCAAGAUUAGCACUGCAGACAAUUCCUGAAGAUUUGGAUCUACGAGAUGACAGUCUGCUAAAAAAU: 0.0963 ratio
GAUCUGCAGGCGUAUCUCACAGACUUCCUUUGCCAGUUUGCUCAGCAGCCCUGUUACAUAAUGUUUUCAUGCCACCUUAACGACAACGAGAGGCGGGUCCUACAGACUAUCGGCAUCUAA: 0.114 ratio
CUGGCAAAGCAUCCAAAGAGCCUGGCUUCUGUCCUUUCUGGGGCAUGUGAUGGAGAGGUUAAAAUUUGGAAUCUGACUAAACGAAAAUGUAUCCGAACAAUACAAGCACAUGAAGGUUUU: 0.225 ratio
UGGUCGAUAUUCCUGGGAAUGGGGACCUUACUCUGGGGCCAGCUUAUUUCAACCAUUCCAACCAGCCGCUUAAAGUUUCUAAAAGAAGCUGGUCAUGGAACCCAGAAGGAGGAGAUACCU: 0.274 ratio
AAACUCAAACAGACGUUGACUUUCUUUGAUGAGCUUCAUAAUGUUGGCAGAGAUCAUGGGACUAGUGAUUUUAGGGAGAGUUUAGUAUCCCUGGUUCAGAACUCCAGAAAACUACAGAAC: 0.198 ratio
CUGUGGUGUGUGAAAGAGAGAAGAAAAACUGGAAAUCUUAUUCCGUGUGUGUUUGGGAGUUGCUUGGGGUUGGGGGUCGUGGGGACAGGGGACAGCUCUGGGAGCAGAGGUGGCCCUCGG: 0.589 ratio
CUGCUCAGGCUGAGAGCUCAGACAAAACAGCAGCUCUUAGAAUAUAAGUCCAUGAUCGACACAAAUGAAGAAAAAACUCCAGAACAGAUUAUGCAAGAAAAACAGAUCGAAGUUAAAAUU: 0.946 ratio
GGUCAUGACCUGCGCAUACGCUCCUUCUGGGAAUUAUGUGGCCUGUGGUGGCCUGGAUAACAUCUGCUCCAUUUACAACCUGAAAACUCGUGAAGGGAAUGUGCGUGUGAGUCGUGAGCU: 0.204 ratio

Sample 4 — method: protein-binding microarray; molecule type: double-stranded DNA, one strand shown; sample: in vitro; tested at: 250 nM; notes: 60-bp whole probe; added: salmon DNA 0.4 mg/ml; reference: random background probes; direction: higher = stronger binding; endpoint: log fluorescence; all sequences stand within: GCCTAGCAC … GTCTTGATTCGCTTGACGCTGCTG
Target: Interferon regulatory factor 5, full length, phosphomimetic (IRF5, Homo sapiens, UniProt Q13568-2, residues 1-514, K96S/S451D/S453D/S456D/S462D)
TAAGGTTTCGGTATCGGTTAGTGCTAG: 10.8 z-score
GACGGTATTGACACTGGGGACGTGCTA: 0.171 z-score
CACGGTTCCGGTTTCGGGACGTGCTAG: 4.14 z-score
ATAGATATCGGGTTTCGATTAGTGCTA: 7.86 z-score
TCACGTTACTTCCTCAAACTGTGCTAG: 0.323 z-score
TTAGGTCTCCTACTGCTTTAGTGCTAG: -0.151 z-score
TTAGGTTTCGGGTATCGGTCAGTGCTA: 9.41 z-score
TCATATTAGAGTCTCAAACTGTGCTAG: 0.234 z-score
GACGAACTGAGTCTCGAGACGTGCTAG: -0.0427 z-score
TCACATCTCCAGTAGCCTACTGTGCTA: 0.245 z-score
CAGTTTCTCTTTCCTTCTTGGTGCTAG: 6.96 z-score
TCACCTCTCTGTCCCCCTTTGTGCTAG: 0.262 z-score
AGTGCTATACCACTCTTGCTGTGCTAG: -0.0662 z-score
GACGGACTGCTTCGCCTGACGTGCTAG: -0.658 z-score
GACGGTATTGACTTTCGGGACGTGCTA: 5.66 z-score
GACGGACTGGACCTTCGGGACGTGCTA: -0.521 z-score
TTAGGTATCCTACTACTTTAGTGCTAG: -0.0297 z-score
GACGGTATCTGACTGGGGACGTGCTAG: -0.135 z-score
TTCGATATCAGTTTCGATTAGTGCTAG: 9.95 z-score
GACGGTCCCCTTTTCCTGACGTGCTAG: -0.271 z-score
TCAAAAAATGGAAATCTAACTGTGCTA: 0.492 z-score
GACGGACTGCCTATCCTGACGTGCTAG: -0.439 z-score
TTTTTTTCATATATATATGAGTGCTAG: 2.33 z-score
ATAGGTATCCTTTTCCTTTAGTGCTAG: 0.508 z-score
CCCTGTGTTACTTTCTACTTGTGCTAG: 2.14 z-score

Sample 5 — method: protein binding microarray; molecule type: double-stranded DNA, one strand shown; sample: in vitro; tested at: not given; reference: not given; direction: higher = stronger binding; endpoint: E-score
Target: Histone acetyltransferase KAT6A, winged helix 1, GST fusion (KAT6A, Homo sapiens, UniProt Q92794, residues 1-85)
Notes: 8-mer, flanks averaged, mean of 2 arrays, mostly near background
Target sequence (chain): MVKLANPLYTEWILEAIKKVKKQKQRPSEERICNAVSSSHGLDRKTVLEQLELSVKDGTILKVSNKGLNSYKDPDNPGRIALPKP
CTGGACCA: -0.222
AACAGCGG: 0.183
CCCAGTAG: -0.132
GGGACCAC: 0.125
AAGTGTGT: -0.135
GCCTTATA: 0.0257
AGTTGGCC: -0.0318
TGCTGCAA: -0.229
ACACATAA: -0.187
TCCTGAGA: -0.0941
CCTGCTTC: 0.0415
GAGAGCCC: -0.0584
AATCATGC: -0.00427
ACTTATCG: -0.00215
AGCGCGGA: 0.283
GCCGGTAC: 0.335
AGGACTTA: -0.274
AAATCCGT: 0.0724
ACCCTTGA: 0.121
ATGCATTC: -0.213
CTTTTATC: -0.137
ACTGAAGT: -0.221
TACGACCA: -0.171
